Assay results gathered from unrelated publications.
A part holds a random share of what one study measured.
UniProt P49137, sequence (whole entry, looked up): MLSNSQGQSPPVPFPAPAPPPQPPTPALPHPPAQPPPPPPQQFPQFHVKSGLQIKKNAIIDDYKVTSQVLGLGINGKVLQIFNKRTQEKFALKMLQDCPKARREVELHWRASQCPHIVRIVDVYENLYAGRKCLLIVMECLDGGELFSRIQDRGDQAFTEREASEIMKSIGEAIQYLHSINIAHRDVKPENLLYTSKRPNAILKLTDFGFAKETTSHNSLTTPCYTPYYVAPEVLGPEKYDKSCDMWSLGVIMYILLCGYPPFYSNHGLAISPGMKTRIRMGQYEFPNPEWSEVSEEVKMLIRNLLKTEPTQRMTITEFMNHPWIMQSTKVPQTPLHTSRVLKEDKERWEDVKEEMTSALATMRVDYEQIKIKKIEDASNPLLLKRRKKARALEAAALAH
UniProt P52333, sequence (whole entry, looked up): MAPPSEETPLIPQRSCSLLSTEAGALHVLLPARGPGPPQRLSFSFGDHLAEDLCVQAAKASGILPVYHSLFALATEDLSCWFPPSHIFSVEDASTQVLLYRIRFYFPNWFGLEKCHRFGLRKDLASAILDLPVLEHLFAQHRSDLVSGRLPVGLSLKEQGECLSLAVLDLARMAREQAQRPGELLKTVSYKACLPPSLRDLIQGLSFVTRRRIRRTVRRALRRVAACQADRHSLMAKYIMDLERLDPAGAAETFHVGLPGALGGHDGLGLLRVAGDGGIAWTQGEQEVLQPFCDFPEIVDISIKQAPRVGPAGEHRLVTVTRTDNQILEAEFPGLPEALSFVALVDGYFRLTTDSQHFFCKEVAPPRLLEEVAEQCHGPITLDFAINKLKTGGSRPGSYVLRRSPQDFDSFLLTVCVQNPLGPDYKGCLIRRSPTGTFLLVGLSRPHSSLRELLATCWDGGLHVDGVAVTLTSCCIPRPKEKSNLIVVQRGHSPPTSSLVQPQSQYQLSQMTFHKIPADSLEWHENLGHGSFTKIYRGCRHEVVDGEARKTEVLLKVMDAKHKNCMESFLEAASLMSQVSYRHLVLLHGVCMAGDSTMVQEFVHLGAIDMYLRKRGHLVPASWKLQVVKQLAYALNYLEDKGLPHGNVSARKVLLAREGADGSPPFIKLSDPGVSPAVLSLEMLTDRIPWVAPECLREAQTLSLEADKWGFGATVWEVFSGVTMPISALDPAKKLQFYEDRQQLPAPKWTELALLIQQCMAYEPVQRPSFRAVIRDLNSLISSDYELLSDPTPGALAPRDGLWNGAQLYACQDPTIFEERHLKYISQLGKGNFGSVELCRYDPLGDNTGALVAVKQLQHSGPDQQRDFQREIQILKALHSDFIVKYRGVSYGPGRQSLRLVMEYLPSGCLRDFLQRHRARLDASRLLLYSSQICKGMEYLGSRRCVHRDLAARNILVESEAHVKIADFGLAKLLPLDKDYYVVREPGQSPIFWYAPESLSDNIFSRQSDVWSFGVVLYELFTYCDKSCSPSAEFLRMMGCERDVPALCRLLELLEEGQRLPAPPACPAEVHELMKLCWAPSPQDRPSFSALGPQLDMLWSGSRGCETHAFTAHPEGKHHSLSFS
UniProt Q02763, sequence (whole entry, looked up): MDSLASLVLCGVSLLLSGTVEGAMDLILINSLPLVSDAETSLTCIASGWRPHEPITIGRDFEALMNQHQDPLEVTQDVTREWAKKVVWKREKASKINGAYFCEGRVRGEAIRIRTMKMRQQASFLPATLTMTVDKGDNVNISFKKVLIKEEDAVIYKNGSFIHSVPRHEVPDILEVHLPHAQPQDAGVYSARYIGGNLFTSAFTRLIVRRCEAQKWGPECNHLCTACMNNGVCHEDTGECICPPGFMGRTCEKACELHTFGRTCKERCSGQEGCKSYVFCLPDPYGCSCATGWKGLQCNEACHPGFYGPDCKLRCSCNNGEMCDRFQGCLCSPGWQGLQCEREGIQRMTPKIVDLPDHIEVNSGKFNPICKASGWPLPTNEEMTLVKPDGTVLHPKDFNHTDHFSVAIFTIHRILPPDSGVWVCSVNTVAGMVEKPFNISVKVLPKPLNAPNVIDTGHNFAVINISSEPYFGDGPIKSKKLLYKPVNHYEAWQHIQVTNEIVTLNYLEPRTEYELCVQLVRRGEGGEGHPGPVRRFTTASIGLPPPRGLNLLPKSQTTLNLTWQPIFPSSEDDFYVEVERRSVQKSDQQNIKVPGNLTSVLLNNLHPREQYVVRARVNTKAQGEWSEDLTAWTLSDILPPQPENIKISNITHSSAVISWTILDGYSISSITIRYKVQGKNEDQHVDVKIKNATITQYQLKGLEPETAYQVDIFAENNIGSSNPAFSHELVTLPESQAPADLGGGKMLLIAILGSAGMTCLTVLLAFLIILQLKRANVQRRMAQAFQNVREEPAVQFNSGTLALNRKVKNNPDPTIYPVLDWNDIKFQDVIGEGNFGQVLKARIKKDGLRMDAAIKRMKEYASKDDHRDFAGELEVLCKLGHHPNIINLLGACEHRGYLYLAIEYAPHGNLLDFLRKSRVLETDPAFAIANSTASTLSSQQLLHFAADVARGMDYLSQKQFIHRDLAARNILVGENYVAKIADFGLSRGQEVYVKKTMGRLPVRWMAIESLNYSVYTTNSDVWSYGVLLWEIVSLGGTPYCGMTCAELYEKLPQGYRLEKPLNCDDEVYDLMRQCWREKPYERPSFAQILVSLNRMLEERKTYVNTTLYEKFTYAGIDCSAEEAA
UniProt P53355, sequence (whole entry, looked up): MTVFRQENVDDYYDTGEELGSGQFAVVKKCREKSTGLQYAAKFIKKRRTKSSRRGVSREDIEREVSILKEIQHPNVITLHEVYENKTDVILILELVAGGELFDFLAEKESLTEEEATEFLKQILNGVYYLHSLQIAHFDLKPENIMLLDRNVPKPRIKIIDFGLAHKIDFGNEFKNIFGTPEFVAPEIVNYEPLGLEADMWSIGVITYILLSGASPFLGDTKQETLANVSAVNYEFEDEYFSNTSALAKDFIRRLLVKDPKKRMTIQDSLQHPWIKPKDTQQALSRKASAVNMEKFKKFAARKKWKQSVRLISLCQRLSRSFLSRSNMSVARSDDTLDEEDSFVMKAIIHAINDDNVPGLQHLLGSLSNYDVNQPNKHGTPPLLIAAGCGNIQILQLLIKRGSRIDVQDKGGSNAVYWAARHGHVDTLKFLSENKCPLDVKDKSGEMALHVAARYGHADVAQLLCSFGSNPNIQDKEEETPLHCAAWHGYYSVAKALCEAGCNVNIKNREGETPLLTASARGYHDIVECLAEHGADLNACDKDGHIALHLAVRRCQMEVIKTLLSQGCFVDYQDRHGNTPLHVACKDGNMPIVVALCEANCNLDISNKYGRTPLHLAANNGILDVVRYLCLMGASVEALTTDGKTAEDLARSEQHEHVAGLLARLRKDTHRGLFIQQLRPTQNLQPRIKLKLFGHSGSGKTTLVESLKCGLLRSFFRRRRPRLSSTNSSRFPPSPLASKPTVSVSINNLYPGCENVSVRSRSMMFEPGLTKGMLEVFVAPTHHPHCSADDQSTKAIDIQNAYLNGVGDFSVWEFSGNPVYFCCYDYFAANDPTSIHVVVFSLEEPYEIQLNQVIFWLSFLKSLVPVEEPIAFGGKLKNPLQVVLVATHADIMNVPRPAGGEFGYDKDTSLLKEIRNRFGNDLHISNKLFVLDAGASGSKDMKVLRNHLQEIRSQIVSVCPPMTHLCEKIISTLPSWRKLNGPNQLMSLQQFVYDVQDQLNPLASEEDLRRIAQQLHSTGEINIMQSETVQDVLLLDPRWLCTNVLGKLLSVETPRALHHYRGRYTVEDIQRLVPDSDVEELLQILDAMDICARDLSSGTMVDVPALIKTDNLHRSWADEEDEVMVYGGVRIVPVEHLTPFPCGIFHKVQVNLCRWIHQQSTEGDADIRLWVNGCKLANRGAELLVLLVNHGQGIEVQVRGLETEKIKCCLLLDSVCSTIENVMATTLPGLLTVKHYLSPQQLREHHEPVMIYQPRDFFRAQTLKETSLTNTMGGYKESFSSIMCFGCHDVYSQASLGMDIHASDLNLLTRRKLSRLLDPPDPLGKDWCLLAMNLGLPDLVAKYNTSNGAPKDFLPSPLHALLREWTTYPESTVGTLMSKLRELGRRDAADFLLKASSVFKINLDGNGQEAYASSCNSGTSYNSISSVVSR
UniProt P36896, sequence (whole entry, looked up): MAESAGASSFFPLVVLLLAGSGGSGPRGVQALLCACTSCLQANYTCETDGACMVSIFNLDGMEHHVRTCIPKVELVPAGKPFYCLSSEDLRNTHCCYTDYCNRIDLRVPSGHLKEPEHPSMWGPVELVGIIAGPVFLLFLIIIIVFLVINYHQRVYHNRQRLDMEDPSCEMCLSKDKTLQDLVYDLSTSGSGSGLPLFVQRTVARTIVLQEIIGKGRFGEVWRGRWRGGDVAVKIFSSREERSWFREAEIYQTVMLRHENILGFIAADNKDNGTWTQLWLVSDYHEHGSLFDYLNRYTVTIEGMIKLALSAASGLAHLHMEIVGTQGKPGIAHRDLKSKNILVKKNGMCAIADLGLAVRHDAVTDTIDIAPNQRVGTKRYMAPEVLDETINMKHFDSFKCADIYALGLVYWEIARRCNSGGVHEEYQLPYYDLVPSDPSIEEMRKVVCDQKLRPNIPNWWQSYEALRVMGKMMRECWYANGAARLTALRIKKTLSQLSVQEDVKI
UniProt Q9Y6M4, sequence (whole entry, looked up): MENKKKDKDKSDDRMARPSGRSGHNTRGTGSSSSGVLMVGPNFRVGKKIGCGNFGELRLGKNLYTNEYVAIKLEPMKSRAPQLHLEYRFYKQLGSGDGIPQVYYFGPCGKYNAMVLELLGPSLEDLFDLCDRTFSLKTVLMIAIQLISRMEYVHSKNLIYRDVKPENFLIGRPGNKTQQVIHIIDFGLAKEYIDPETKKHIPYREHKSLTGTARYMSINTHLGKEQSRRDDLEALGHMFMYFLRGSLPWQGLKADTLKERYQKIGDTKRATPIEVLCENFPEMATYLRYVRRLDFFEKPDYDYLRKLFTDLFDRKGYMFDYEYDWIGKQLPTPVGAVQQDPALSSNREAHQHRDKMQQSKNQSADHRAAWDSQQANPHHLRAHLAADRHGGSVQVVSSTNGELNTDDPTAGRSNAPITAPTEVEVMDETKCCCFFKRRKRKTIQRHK

Study 1
SMILES: Fc1ccc(-c2nc3n(c2-c2ccncc2)CCS3)cc1
Effect on: enzyme activity
Action: inhibitor
Concentration: 0.5 µM
Relative to: control
For CSNK1G2 (Homo sapiens, UniProt P78368): remaining activity read 76.4%.
For JAK3 (Homo sapiens, UniProt P52333): remaining activity read 94.3%.
For ULK3 (Homo sapiens, UniProt Q6PHR2): remaining activity read 79.2%.
TEK (Homo sapiens, UniProt Q02763) — remaining activity: 95.6%.
The remaining activity was 105% (MAP3K5 (Homo sapiens, UniProt Q99683)).
For MAPKAPK2 (Homo sapiens, UniProt P49137): remaining activity read 101%.
For FGFR1 (Homo sapiens, UniProt P11362): remaining activity read 93.4%.
It gave 115% for remaining activity (ACVR1B (Homo sapiens, UniProt P36896)).
It gave 104% for remaining activity (FRK (Homo sapiens, UniProt P42685)).
The remaining activity was 97.9% (CSNK1G3 (Homo sapiens, UniProt Q9Y6M4)).
For EPHA3 (Homo sapiens, UniProt P29320): remaining activity read 112%.
NEK6 (Homo sapiens, UniProt Q9HC98) — remaining activity: 98.7%.
The remaining activity was 104% (GRK7 (Homo sapiens, UniProt Q8WTQ7)).

Study 2
Target: TAR DNA-binding protein 43, full length, His tag (TARDBP, Homo sapiens, UniProt Q13148, residues 1-414)
Technique: RNA Bind-n-Seq
Form: RNA
Matrix: in vitro
Concentration: 20 nM
Setting: 6-mer, flanks averaged, single round
Added: 150 mM KCl
Relative to: input library
Direction: higher = stronger binding
`CUGAAA`: “6-mer enrichment (R)” 0.633.
For `UCGGGU`, “6-mer enrichment (R)” read 1.59.
`CACUAC`: “6-mer enrichment (R)” 0.599.
Under “6-mer enrichment (R)”, `CGCCGA` is recorded as 0.817.
Under “6-mer enrichment (R)”, `CAUUAG` is recorded as 0.628.
`CGGUAU`: “6-mer enrichment (R)” 0.773.
`UCUCAA` — result for “6-mer enrichment (R)”: 0.551.
For `AUGACU`, “6-mer enrichment (R)” read 0.631.

Study 3
SMILES: CCC(=O)N[C@@H]1CC[C@H](C(=O)N(C)c2ccc(-c3nc4ccccc4o3)cc2)C1
Effect on: cell-free assay
Technique: competition with immobilised ligand
Concentration: 1 µM
The remaining binding was 100% (DAPK1 (Homo sapiens, UniProt P53355)).
It gave 100% for remaining binding (CAMK1G (Homo sapiens, UniProt Q96NX5)).
It gave 100% for remaining binding (ERBB3 (Homo sapiens, UniProt P21860)).

Mixed results
Technique: cross-linking MS
Matrix: cell fractions
Added: DSSO
Under cross-linked residues, `SRSF4 (Homo sapiens, UniProt Q08170)` is recorded as “K176 to K24” (SRSF7 (Homo sapiens, UniProt Q16629)).
`TCP1 (Homo sapiens, UniProt P17987)`: cross-linked residues “K126 to K55” (CCT4 (Homo sapiens, UniProt P50991)).

A few entries again (study 1):
For CSNK1G2 (Homo sapiens, UniProt P78368): remaining activity read 76.4%.
The remaining activity was 104% (GRK7 (Homo sapiens, UniProt Q8WTQ7)).
NEK6 (Homo sapiens, UniProt Q9HC98) — remaining activity: 98.7%.
